Assay results from different studies.
Numbered parts are unrelated; each lists some results of a single study. Several values in a cell are separate wells, animals, samples, runs or records.
Chain of UniProt O15146 (whole entry, looked up): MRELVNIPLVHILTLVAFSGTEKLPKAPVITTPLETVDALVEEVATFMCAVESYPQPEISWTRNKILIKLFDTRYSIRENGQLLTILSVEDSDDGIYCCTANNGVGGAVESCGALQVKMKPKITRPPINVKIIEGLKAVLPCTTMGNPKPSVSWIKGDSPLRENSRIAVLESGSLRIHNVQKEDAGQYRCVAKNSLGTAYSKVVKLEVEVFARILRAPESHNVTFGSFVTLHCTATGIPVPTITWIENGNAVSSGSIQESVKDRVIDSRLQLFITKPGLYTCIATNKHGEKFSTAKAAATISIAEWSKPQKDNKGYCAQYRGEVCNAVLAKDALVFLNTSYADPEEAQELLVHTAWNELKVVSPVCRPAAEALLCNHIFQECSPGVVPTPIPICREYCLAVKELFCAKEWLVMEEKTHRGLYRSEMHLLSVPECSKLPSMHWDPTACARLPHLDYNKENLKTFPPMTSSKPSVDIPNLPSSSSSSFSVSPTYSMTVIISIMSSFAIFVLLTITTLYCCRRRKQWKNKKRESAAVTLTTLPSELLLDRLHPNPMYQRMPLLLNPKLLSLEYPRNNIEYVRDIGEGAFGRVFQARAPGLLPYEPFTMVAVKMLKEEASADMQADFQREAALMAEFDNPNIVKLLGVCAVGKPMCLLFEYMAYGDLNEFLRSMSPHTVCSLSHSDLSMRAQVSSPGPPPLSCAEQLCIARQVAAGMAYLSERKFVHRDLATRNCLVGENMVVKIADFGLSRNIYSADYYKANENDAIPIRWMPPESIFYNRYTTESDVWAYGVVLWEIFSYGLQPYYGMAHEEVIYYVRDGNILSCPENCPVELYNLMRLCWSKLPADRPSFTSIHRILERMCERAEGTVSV
Chain of UniProt Q06418 (whole entry, looked up): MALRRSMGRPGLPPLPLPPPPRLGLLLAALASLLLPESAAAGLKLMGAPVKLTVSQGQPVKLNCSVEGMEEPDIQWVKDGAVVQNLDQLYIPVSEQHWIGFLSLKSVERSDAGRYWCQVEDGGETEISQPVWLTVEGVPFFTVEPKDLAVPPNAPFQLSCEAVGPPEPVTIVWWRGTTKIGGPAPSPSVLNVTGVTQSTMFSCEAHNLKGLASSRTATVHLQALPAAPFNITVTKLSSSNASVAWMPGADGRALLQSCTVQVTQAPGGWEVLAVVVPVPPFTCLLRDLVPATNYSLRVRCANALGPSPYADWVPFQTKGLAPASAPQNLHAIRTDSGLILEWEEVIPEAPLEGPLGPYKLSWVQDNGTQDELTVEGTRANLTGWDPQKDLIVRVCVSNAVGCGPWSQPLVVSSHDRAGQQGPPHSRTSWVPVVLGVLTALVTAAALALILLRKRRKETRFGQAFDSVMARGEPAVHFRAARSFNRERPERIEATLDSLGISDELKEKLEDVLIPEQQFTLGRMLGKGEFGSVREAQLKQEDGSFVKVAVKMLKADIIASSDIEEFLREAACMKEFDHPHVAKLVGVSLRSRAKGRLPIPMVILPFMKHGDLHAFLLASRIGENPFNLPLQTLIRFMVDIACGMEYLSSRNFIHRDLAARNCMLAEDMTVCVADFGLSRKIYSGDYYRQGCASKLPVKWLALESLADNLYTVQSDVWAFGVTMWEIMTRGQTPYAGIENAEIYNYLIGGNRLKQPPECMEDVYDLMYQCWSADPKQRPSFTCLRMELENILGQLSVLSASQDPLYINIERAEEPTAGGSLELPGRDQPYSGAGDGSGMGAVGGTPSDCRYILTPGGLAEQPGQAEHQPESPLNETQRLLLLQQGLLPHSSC

Series 1 — tested at: 1 µM
Structure (SMILES): CC[C@@]1(c2cccc(C(F)(F)F)c2)C2=C(Nc3n[nH]cc31)[C@H](F)C(C)(C)CC2=O (single isomer, unassigned)
For MYLK4 (Homo sapiens, UniProt Q86YV6); kinase binding, KINOMEscan; relative to: DMSO control: remaining binding read 96%.
It gave 100% for remaining binding (FGFR1 (Homo sapiens, UniProt P11362); kinase binding, KINOMEscan; relative to: DMSO control).
For FLT3 (Homo sapiens, UniProt P36888, D835V); kinase binding, KINOMEscan; relative to: DMSO control: remaining binding read 100%.
The remaining binding was 80% (MAPK8 (Homo sapiens, UniProt P45983); binding, competition with immobilised ligand).
For HASPIN (Homo sapiens, UniProt Q8TF76); kinase binding, KINOMEscan; relative to: DMSO control: remaining binding read 86%.
NEK11 (Homo sapiens, UniProt Q8NG66); binding, competition with immobilised ligand — remaining binding: 87%.
For MUSK (Homo sapiens, UniProt O15146); kinase binding, KINOMEscan; relative to: DMSO control: remaining binding read 97%.
PRKD1 (Homo sapiens, UniProt Q15139); binding, competition with immobilised ligand — remaining binding: 90%.
The remaining binding was 100% (PRKG1 (Homo sapiens, UniProt Q13976); kinase binding, KINOMEscan; relative to: DMSO control).
For YES1 (Homo sapiens, UniProt P07947); kinase binding, KINOMEscan; relative to: DMSO control: remaining binding read 95%.
Tyrosine-protein kinase JAK1, JH1 kinase domain (JAK1, Homo sapiens, UniProt P23458); kinase binding, KINOMEscan; relative to: DMSO control — remaining binding: 100%.
TNK1 (Homo sapiens, UniProt Q13470); kinase binding, KINOMEscan; relative to: DMSO control — remaining binding: 100%.
For TEK (Homo sapiens, UniProt Q02763); binding, competition with immobilised ligand: remaining binding read 100%.
For EGFR (Homo sapiens, UniProt P00533, del746-750); binding, competition with immobilised ligand: remaining binding read 100%.
For TYRO3 (Homo sapiens, UniProt Q06418); binding, competition with immobilised ligand: remaining binding read 100%.
It gave 80% for remaining binding (MAP2K3 (Homo sapiens, UniProt P46734); binding, competition with immobilised ligand).
MKNK1 (Homo sapiens, UniProt Q9BUB5); kinase binding, KINOMEscan; relative to: DMSO control — remaining binding: 100%.
The remaining binding was 74% (DCLK1 (Homo sapiens, UniProt O15075); kinase binding, KINOMEscan; relative to: DMSO control).
For BUB1 (Homo sapiens, UniProt O43683); binding, competition with immobilised ligand: remaining binding read 100%.

Series 2 — observed: enzyme activity; mode: inhibitor; method: Ub-TR-FRET; sample: HECT domain; tested at: 0.005081 µM; direction: higher = more chain formation
Target: E3 ubiquitin-protein ligase NEDD4, HECT domain (Homo sapiens, UniProt P46934)
Chain of UniProt P46934 (whole entry, looked up): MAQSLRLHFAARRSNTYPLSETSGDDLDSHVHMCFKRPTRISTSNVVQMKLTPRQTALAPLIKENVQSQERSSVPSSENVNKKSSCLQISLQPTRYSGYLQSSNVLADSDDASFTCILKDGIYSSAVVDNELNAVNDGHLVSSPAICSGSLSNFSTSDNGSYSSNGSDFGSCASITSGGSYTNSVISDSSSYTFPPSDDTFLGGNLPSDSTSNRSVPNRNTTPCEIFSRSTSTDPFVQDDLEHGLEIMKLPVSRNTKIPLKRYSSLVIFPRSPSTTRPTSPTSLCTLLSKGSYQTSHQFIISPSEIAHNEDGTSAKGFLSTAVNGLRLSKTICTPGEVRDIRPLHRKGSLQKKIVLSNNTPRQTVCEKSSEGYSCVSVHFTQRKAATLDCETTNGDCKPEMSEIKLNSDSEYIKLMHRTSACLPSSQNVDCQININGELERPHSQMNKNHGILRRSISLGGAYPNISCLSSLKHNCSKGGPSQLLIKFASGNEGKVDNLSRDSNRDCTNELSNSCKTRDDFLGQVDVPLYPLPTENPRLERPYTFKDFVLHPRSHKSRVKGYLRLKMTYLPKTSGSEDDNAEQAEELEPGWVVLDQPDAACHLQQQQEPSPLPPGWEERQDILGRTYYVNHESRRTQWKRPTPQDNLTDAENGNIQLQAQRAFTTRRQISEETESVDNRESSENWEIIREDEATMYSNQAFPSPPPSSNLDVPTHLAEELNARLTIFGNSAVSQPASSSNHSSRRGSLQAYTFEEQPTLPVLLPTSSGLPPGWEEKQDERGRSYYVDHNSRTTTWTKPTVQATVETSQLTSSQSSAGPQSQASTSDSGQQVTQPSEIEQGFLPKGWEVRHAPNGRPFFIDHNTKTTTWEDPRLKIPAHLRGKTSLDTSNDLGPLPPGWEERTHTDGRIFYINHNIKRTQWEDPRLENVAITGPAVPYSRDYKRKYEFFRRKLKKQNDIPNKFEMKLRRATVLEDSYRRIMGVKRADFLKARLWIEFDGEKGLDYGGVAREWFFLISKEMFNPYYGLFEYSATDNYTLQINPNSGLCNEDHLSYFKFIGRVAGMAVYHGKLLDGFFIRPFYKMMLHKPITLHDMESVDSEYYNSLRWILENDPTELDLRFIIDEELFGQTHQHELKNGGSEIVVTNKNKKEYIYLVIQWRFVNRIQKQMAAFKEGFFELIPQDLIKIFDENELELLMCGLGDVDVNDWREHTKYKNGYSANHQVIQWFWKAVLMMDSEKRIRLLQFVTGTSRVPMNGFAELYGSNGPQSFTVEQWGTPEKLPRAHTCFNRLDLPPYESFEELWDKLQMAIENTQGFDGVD
`CNC(=O)/C=C/CNCCCN1c2ccccc2CCc2ccc(Cl)cc21.Cl`: “ubiquitin chain formation AUC” 132000 a.u. and 130000 a.u.
`CNC(=O)/C=C/CNCCCCN1c2ccccc2CCc2ccc(Cl)cc21.Cl` — result for “ubiquitin chain formation AUC”: 86400 a.u. and 87300 a.u. and 70900 a.u. and 82900 a.u. and 68800 a.u. and 71200 a.u.
`CCOC(=O)/C=C/CNCCCCN1c2cc(Cl)ccc2CCc2cnn(C)c21.O=C(O)/C=C\C(=O)O` — result for “ubiquitin chain formation AUC”: 68500 a.u. and 68800 a.u. and 83300 a.u. and 73300 a.u. and 69800 a.u. and 72200 a.u.
`N#C/C=C/CNCCCCN1c2ccccc2CCc2ccc(Cl)cc21.O=C(O)/C=C\C(=O)O`: “ubiquitin chain formation AUC” 92600 a.u. and 93400 a.u. and 101000 a.u. and 102000 a.u. and 103000 a.u. and 90000 a.u.
`CCOC(=O)/C=C/CNCCCN1c2ccccc2CCc2ccc(Cl)cc21` — result for “ubiquitin chain formation AUC”: 42900 a.u. and 43300 a.u. and 44400 a.u.
For `CCOC(=O)/C=C/CN(CC)CCCCN1c2ccccc2CCc2ccc(Cl)cc21.O=C(O)/C=C\C(=O)O`, “ubiquitin chain formation AUC” read 102000 a.u. and 103000 a.u. and 92100 a.u. and 94100 a.u. and 92800 a.u.
`CC(C)ONC(=O)/C=C/CNCCCCN1c2ccccc2CCc2ccc(Cl)cc21.O=C(O)/C=C\C(=O)O` — result for “ubiquitin chain formation AUC”: 37300 a.u. and 30300 a.u. and 31300 a.u. and 38600 a.u. and 29000 a.u. and 37000 a.u.
`CCOC(=O)/C=C/CNCCCCN1c2cc(Cl)ccc2COc2ccccc21.O=C(O)/C=C\C(=O)O` — result for “ubiquitin chain formation AUC”: 92500 a.u. and 93300 a.u. and 92100 a.u.
Under “ubiquitin chain formation AUC”, `Cl.NC(=O)/C=C/CNCCCN1c2ccccc2CCc2ccc(Cl)cc21` is recorded as 139000 a.u. and 137000 a.u. and 138000 a.u.
`CCOC(=O)/C=C/CN(CCCCN1c2ccccc2CCc2ccc(Cl)cc21)C(C)C.O=C(O)/C=C\C(=O)O`: “ubiquitin chain formation AUC” 84700 a.u. and 86400 a.u. and 81900 a.u. and 84100 a.u. and 84900 a.u. and 83600 a.u.
`COC(=O)CCCNCCCN1c2ccccc2CCc2ccc(Cl)cc21.COC(=O)CCCNCCCN1c2ccccc2CCc2ccc(Cl)cc21.O=C(O)/C=C/C(=O)O` — result for “ubiquitin chain formation AUC”: 131000 a.u. and 130000 a.u. and 129000 a.u.
`CONC(=O)/C=C/CNCCCCN1c2ccccc2CCc2ccc(Cl)cc21.O=C(O)/C=C\C(=O)O`: “ubiquitin chain formation AUC” 38400 a.u. and 38800 a.u. and 63700 a.u. and 64000 a.u. and 39200 a.u.

Series 3 — observed: thermal unfolding; method: differential scanning fluorimetry; tested at: 5.5 µM; direction: higher = more unfolded
Compound: C[C@@H]1CN(c2ccc(-c3cc(C(=O)NCCOCCOCCOCCOCCOCCOCCNC(=O)/C=C/c4[nH]cc(C(=O)N[C@@H](CC(N)=O)c5ccc(F)c(Cl)c5)c4-c4ccc(Cl)cc4F)ccc3F)cc2NC(=O)c2ccc(F)cc2C(F)(F)F)C[C@H](C)N1C
WDR5: WD repeat-containing protein 5 (WDR5, Homo sapiens, UniProt P61964)
DCAF1: DDB1- and CUL4-associated factor 1 (DCAF1, Homo sapiens, UniProt Q9Y4B6)
Chain of UniProt Q9Y4B6 (whole entry, looked up): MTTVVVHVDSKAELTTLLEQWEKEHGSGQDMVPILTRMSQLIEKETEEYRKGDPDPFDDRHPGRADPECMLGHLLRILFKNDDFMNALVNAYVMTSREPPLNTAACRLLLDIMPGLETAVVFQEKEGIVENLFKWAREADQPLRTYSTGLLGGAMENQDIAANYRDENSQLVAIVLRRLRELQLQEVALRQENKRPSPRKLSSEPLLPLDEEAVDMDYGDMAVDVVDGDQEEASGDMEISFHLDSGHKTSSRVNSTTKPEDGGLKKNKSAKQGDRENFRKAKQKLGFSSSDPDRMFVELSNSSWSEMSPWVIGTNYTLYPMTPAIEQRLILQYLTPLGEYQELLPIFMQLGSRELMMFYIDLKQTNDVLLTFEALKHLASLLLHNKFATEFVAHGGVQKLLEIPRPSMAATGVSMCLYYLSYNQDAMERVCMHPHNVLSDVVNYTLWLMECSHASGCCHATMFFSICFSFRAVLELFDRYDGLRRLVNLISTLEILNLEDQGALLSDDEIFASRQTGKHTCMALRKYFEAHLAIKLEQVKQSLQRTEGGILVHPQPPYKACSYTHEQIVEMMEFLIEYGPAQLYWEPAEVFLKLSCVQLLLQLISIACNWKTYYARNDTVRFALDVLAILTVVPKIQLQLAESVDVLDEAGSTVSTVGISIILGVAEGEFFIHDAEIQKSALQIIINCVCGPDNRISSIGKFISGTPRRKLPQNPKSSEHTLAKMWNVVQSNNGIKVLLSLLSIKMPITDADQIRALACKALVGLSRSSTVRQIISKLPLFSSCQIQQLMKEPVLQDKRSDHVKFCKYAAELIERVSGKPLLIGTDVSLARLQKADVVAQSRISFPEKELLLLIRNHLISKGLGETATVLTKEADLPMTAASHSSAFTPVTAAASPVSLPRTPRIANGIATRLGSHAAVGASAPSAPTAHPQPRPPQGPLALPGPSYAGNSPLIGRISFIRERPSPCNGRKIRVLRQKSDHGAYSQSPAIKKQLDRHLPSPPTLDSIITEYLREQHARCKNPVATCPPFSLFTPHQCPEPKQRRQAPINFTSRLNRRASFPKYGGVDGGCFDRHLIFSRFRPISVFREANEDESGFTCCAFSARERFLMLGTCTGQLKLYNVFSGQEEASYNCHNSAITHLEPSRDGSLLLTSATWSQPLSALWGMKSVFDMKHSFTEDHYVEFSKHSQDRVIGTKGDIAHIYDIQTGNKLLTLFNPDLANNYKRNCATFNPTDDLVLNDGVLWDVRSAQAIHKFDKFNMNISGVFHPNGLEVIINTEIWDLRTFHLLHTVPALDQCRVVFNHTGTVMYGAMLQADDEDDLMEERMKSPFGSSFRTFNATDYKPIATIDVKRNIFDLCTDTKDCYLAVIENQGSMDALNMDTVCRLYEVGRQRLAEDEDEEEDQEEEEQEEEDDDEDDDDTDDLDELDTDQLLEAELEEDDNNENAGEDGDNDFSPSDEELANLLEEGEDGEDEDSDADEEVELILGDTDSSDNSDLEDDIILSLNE
WDR5; 92.61 °C — “SYPRO Orange fluorescence”: 51000 a.u.
For DCAF1; 49.8 °C: “SYPRO Orange fluorescence” read 17900 a.u.
For DCAF1; 90.41 °C: “SYPRO Orange fluorescence” read 32100 a.u.
The “SYPRO Orange fluorescence” was 23900 a.u. (DCAF1; 53.81 °C).
WDR5; 39.4 °C — “SYPRO Orange fluorescence”: 14000 a.u.
For WDR5; 30.2 °C: “SYPRO Orange fluorescence” read 13500 a.u.
DCAF1; 87.41 °C — “SYPRO Orange fluorescence”: 34200 a.u.
DCAF1; 85.41 °C — “SYPRO Orange fluorescence”: 35500 a.u.
It gave 59900 a.u. for “SYPRO Orange fluorescence” (WDR5; 86.61 °C).
For WDR5; 46.8 °C: “SYPRO Orange fluorescence” read 15100 a.u.
It gave 7450 a.u. for “SYPRO Orange fluorescence” (DCAF1; 25.8 °C).

Further values, each from its own experiment
PKMYT1: Membrane-associated tyrosine- and threonine-specific cdc2-inhibitory kinase (PKMYT1, Homo sapiens, UniProt Q99640)
Chain of UniProt Q99640 (whole entry, looked up): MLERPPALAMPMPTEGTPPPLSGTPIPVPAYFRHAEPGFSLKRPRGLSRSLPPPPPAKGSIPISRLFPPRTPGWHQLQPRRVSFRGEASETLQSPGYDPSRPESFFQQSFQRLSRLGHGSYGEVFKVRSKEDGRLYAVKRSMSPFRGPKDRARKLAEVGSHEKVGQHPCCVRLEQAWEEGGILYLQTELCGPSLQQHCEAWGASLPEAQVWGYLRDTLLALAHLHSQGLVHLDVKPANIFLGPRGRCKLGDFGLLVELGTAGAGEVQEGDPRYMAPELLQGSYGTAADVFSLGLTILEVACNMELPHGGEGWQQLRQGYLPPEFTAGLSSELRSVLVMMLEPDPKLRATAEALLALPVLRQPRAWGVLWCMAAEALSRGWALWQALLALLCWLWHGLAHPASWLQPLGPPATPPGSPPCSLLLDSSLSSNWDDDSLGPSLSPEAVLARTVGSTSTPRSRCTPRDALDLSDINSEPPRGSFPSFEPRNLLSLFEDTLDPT
`Cc1ccc(O)c(C)c1-c1cnc2[nH]c(-c3cnc(N4CCC(CN5CCN(c6ccc7c(c6)C(=O)N(C6CCC(=O)NC6=O)C7=O)CC5)CC4)nc3)cc2c1C#N` (stereo not shown): “remaining protein level” 20.9% (PKMYT1; immunoblotting; HCC1569; 1 µM, 4 h).
`Cc1ccc(O)c(C)c1-c1cnc2[nH]c(-c3cnc(N4CCC(CN5CCN(c6c(F)cc(NC7CCC(=O)NC7=O)cc6F)CC5)CC4)nc3)cc2c1C#N` (racemic) has an IC80 of 321 nM (HCC1569; in-cell western, refers to: CDK1 phospho-Thr14).
`Cc1ccc(O)c(C)c1-c1cnc2[nH]c(-c3cnc(N4CCC(CCN5CCN(c6cc7c(cc6F)c(N6CCC(=O)NC6=O)nn7C)CC5)CC4)nc3)cc2c1C#N` has a protein level of 94.1% (PKMYT1; degrader, automated immunoblot (Jess); 0.01 nM; relative to: GAPDH).
The protein level of `Cc1ccc(O)c(C)c1-c1cnc2[nH]c(-c3cnc(N)nc3)cc2c1C#N` is reported as 1.16 (PKMYT1; immunoblotting; 0.1 µM, unit not given; relative to: untreated).

Repeated from above (series 1):
The remaining binding was 80% (MAPK8 (Homo sapiens, UniProt P45983); binding, competition with immobilised ligand).
The remaining binding was 74% (DCLK1 (Homo sapiens, UniProt O15075); kinase binding, KINOMEscan; relative to: DMSO control).
MKNK1 (Homo sapiens, UniProt Q9BUB5); kinase binding, KINOMEscan; relative to: DMSO control — remaining binding: 100%.
For YES1 (Homo sapiens, UniProt P07947); kinase binding, KINOMEscan; relative to: DMSO control: remaining binding read 95%.
For EGFR (Homo sapiens, UniProt P00533, del746-750); binding, competition with immobilised ligand: remaining binding read 100%.
PRKD1 (Homo sapiens, UniProt Q15139); binding, competition with immobilised ligand — remaining binding: 90%.
